Measured values from different studies.
Each numbered part is a random draw from the data of one study; scales do not carry over between parts. Substitutions count along the parent as printed.

Sample 1 — method: protein-binding microarray; form: double-stranded DNA, one strand shown; medium: in vitro; concentration: not given; direction: higher = stronger binding
Target: Transcription factor SOX-2, HMG box (SOX2, Homo sapiens, UniProt P48431, residues 19-118)
Sequence of UniProt P48431 (19-118, looked up): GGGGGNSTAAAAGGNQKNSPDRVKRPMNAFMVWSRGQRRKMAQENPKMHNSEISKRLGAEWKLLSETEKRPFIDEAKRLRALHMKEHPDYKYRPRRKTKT
Setting: k-mer, scored over probes, only values ≥0.25
Oligonucleotide | E-score
TTATAAA | 0.306
CTATGAA | 0.272
ATTCAGC | 0.319
CAAACAA | 0.333
GTTATTA | 0.263
AATTACT | 0.272
ACATTAT | 0.378
ATACATA | 0.289
AGAATAG | 0.259
ATAAATA | 0.334
AAGCATT | 0.262
AACAAAC | 0.271
CAATTGG | 0.339
AATGGCA | 0.312

Sample 2 — target: CCND2, cyclin fold, Cln2 fusion (human); method: yeast growth competition, sequencing; medium: yeast; setting: weak parent motif; baseline: not given; direction: higher = stronger binding
Parent: PKN2 docking peptide (human); VSAVQKLDFSDTM
Change | normalised enrichment score
M13K | 0.383
D11A | 0.486
S10L | 0.221
A3Q | 0.31
V4K | 0.0513
T12H | 0.421
K6H | 0.2
V1R | 1.23
L7S | -0.123
V4D | 0.141
M13Q | 0.521
A3D | -0.537
T12W | 0.878

Sample 3 — method: universal PBM; form: double-stranded DNA, one strand shown; medium: in vitro; concentration: not given; direction: higher = stronger binding
Target: Sal-like protein 4, full length isoform B (SALL4, Homo sapiens, UniProt Q9UJQ4-2, residues 1-616)
Setting: 8-mer, flanks averaged, mean of replicates
Target sequence (chain): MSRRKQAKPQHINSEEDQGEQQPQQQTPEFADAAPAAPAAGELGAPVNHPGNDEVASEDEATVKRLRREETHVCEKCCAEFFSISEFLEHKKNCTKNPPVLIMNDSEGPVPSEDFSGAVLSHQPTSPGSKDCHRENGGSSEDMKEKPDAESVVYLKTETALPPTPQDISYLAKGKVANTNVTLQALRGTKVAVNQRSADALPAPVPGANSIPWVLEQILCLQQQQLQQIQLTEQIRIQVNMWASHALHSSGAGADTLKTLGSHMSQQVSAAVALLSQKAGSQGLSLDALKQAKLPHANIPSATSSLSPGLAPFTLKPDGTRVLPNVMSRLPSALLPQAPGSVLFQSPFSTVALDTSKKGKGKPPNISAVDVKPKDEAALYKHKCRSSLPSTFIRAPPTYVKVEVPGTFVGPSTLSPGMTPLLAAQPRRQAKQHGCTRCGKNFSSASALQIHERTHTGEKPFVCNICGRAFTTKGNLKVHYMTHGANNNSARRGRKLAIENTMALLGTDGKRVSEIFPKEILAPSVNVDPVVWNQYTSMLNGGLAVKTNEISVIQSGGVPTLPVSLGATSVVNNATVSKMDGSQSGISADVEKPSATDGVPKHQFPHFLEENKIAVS
Oligonucleotide | E-score
AGAATTCG | 0.0309
CCATGAAA | 0.15
AAAACGTT | 0.178
AACGTTGG | -0.0107
TCTTCCCA | -0.197
GATTTGAA | 0.224
GAGAAGTA | 0.0926
ATGGATGC | 0.0726
ATCACATC | -0.0756
CACCTATG | -0.073
CCCAAAAG | -0.136
CTGTATGC | 0.0949
CCAGGGCA | -0.267
GTCGCCAA | -0.13
ACTATGTG | 0.178
GATGTCCC | -0.21

Sample 4 — method: protein binding microarray; form: double-stranded DNA, one strand shown; medium: in vitro; concentration: not given; baseline: not given; direction: higher = stronger binding
Target: Histone acetyltransferase KAT6A, winged helix 2, GST fusion (KAT6A, Homo sapiens, UniProt Q92794, residues 85-181)
Setting: 8-mer, flanks averaged, mean of 2 arrays, mostly near background
Residues (chain): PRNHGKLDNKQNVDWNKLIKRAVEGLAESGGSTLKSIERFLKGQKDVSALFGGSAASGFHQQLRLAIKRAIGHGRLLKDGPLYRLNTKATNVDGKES
Oligonucleotide | E-score
CCCACGGG | 0.163
AACTAGCC | -0.143
AAACAAGG | -0.0451
AGACCACG | -0.201
ACAGTGTA | -0.0152
GGGTCGAC | 0.0265
CGCAGCCC | 0.288
ATATAGAT | -0.00697
CAAGTCTC | -0.2
TATACGGA | -0.139
GACATTTA | -0.194
TATCCTGA | 0.000335
CCTGAAGA | 0.0611
GGACCTAC | -0.0073
CGTGACAC | 0.0578
GACGCGTC | -0.029
ACGGTGTG | -0.0334
CCGTGTCA | 0.0764
ATCGGTCA | -0.144
ACCTATGA | -0.268
GCTCCTGA | 0.0625
GGATGTCA | 0.0294
ATACCACG | -0.0539

Sample 5 — method: aptamer microarray, sandwich; form: DNA with 2'F-ANA; medium: in vitro; concentration: 200 nM; together with: Cy3 exosite-II aptamer, 400 nM; direction: higher = stronger binding; oligonucleotide: GGTTGGTGTGGTTGG
Target: Prothrombin, mature alpha-thrombin (F2, Homo sapiens, UniProt P00734)
Setting: whole 15-mer aptamer, many near background
Modification | mean fluorescence intensity
2'F-ANA at 1 2 5 7 8 9 11 | 55.5 a.u.
2'F-ANA at 1 3 4 5 9 10 11 12 14 | 48.5 a.u.
2'F-ANA at 1 2 3 5 8 9 10 12 14 | 59.1 a.u.
2'F-ANA at 2 5 6 7 8 9 10 14 | 58.6 a.u.
2'F-ANA at 2 4 6 9 13 15 | 145 a.u.
2'F-ANA at 5 6 7 8 11 13 15 | 60.7 a.u.
2'F-ANA at 1 2 10 11 13 15 | 51.6 a.u.
2'F-ANA at 1 3 10 | 86.6 a.u.
2'F-ANA at 5 10 12 14 15 | 45.2 a.u.
2'F-ANA at 1 2 4 5 9 11 13 15 | 182 a.u.
2'F-ANA at 2 3 7 14 | 513 a.u.
2'F-ANA at 4 5 6 7 8 11 12 13 | 104 a.u.
2'F-ANA at 1 2 3 8 10 12 14 | 53.5 a.u.
2'F-ANA at 1 2 4 7 10 11 13 | 48.4 a.u.
2'F-ANA at 2 3 6 10 11 12 14 15 | 217 a.u.
2'F-ANA at 3 4 5 6 11 13 14 | 56.4 a.u.
2'F-ANA at 6 8 9 10 12 13 15 | 149 a.u.
2'F-ANA at 2 3 5 6 7 8 11 12 14 | 64.9 a.u.
2'F-ANA at 1 4 6 8 10 12 14 | 63.3 a.u.
2'F-ANA at 3 5 8 10 13 14 | 69.5 a.u.
2'F-ANA at 1 3 6 7 9 11 13 15 | 170 a.u.
2'F-ANA at 1 2 4 6 9 15 | 104 a.u.
2'F-ANA at 1 2 3 5 6 8 9 | 71.6 a.u.
2'F-ANA at 1 4 5 6 7 9 12 13 | 73.1 a.u.
2'F-ANA at 4 10 13 15 | 88.8 a.u.

Sample 6 — method: RNA Bind-n-Seq; form: RNA; medium: in vitro; concentration: 200 nM; setting: whole 134-nt RNA, ends assumed; together with: 150 mM LiCl; baseline: input library; direction: higher = stronger binding; each molecule: 7-deaza-guanosine replaces G
Target: Ras GTPase-activating protein-binding protein 1, full length (G3BP1, Homo sapiens, UniProt Q13283)
Sequence of UniProt Q13283 (whole entry, looked up): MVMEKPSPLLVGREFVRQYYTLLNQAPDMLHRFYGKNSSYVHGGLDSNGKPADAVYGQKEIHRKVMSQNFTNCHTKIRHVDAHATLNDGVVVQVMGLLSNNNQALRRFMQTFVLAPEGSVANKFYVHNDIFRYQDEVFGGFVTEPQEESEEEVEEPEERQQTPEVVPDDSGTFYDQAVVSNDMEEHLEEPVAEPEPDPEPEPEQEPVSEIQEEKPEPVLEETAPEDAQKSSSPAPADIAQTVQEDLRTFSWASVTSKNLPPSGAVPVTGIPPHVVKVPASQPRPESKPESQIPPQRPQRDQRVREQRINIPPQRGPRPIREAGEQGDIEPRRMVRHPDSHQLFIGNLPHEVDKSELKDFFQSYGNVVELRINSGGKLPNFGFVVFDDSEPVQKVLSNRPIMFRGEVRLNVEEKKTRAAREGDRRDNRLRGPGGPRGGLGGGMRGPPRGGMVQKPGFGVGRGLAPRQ
All sequences stand within: GGGAGUUCUACAGUCCGACGAUC … UGGAAUUCUCGGGUGUCAAGG
Oligonucleotide | log2 enrichment
CAAGUCCUGUGCUACACAUCGUAUGUACCGAAUCGGGGCCCGGCCCGGGCCCGGGAAAGUAUUAUGUUACGCCGUUCGGAUCUGCACUUC | -1.1
AAGUCCUGUGCUACACAUCGUAUGUACCGAAUCGGAAAGGGGAAAGGGGAAAGGGGAAAGUAUUAUGUUACGCCGUUCGGAUCUGCACUU | 0.629
CUCAAGUCCUGUGCUACACAUCGUAUGUACCGAAUCGGAAAAAGGUUUGGUGGAAAGUAUUAUGUUACGCCGUUCGGAUCUGCACUUCCA | 0.0606
ACCAUGCAGGUGGGCAUCUUUGGGAAGUGGGGCAAGGGGGGGAUAGGGAGGGGGGUAACACUUUGGGAACAGGUGGUCCCAGGUCUUUUC | 0.412
AAAGCAAGAGAUGGCUAGUGCUUCAUCCAGCCAAAGAGGUAUGCUUGUUGCUUAAUUAAACCUUAAAGGUAACUUUGAGUUACUCCAGUA | -1.8
GUCCUGUGCUACACAUCGUAUGUACCGAAUCAAAUUUUUUUAAACCCCCAAAUUUAAAAAAGUAUUAUGUUACGCCGUUCGGAUCUGCAC | -1.49
CACAGACAACACGCACCCACACAGACACAGAGGGAAGGGGUUGGGAUGGGGACAGGGUGCACAGCAGGGCGGGGUAGGACCCCAUCCCCU | -0.906
ACCAUACUUGACAACUUCUGAUUGAAUGCCCAUGCCCAAUGCCAACAUCCACGAACGCCAAUGACCAAUGCAGUACAAUGCCAGUGUUUC | 0.606
CUGUGCUACACAUCGUAUGUACCGAAUCGGGGCCCCCCCGGGGCCCCCCCGGGCCCCCCCGGAAAGUAUUAUGUUACGCCGUUCGGAUCU | -0.965
GUCCUGUGCUACACAUCGUAUGUACCGAAUCAAAUUUAAACCCCCCCAAAUUUUUAAAAAAGUAUUAUGUUACGCCGUUCGGAUCUGCAC | 1
AGUCCUGUGCUACACAUCGUAUGUACCGAAUCAAACCCAAACCCCCCCAAACCCAAAAAAGUAUUAUGUUACGCCGUUCGGAUCUGCACU | 0.395

Some of these lines once more (sample 5):
Modification | mean fluorescence intensity
2'F-ANA at 4 10 13 15 | 88.8 a.u.
2'F-ANA at 1 2 5 7 8 9 11 | 55.5 a.u.
2'F-ANA at 2 5 6 7 8 9 10 14 | 58.6 a.u.
2'F-ANA at 2 3 7 14 | 513 a.u.
2'F-ANA at 5 10 12 14 15 | 45.2 a.u.
2'F-ANA at 1 2 3 8 10 12 14 | 53.5 a.u.
2'F-ANA at 1 2 3 5 8 9 10 12 14 | 59.1 a.u.
2'F-ANA at 6 8 9 10 12 13 15 | 149 a.u.
2'F-ANA at 1 2 10 11 13 15 | 51.6 a.u.
2'F-ANA at 4 5 6 7 8 11 12 13 | 104 a.u.
